Published values of several laboratories.
Every numbered part comes from another study and shows a few of its results, in no order.

Set 1
Target: RING finger protein unkempt homolog, zinc fingers 1-6, GST-SBP tag (UNK, Homo sapiens, UniProt Q9C0B0, residues 30-357)
Technique: RNA Bind-n-Seq
Form: RNA
Sample: in vitro
Concentration: not given
Setting: RNA with constant flanks, human and mouse sites, ends assumed
Baseline: input RNA pool
Reading: higher = stronger binding
Residues (chain): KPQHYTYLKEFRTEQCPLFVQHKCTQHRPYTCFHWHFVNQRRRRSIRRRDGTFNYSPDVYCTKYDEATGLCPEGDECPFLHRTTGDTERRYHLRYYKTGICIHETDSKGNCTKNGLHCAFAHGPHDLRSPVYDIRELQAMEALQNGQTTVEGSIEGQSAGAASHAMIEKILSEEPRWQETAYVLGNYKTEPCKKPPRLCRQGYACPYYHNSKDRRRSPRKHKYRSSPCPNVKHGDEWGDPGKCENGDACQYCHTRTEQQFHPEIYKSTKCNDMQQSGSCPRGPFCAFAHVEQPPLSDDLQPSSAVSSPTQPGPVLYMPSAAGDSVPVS
With `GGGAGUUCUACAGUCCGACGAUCGAUGUUUCAUCCAUCUACCGGGUACCCUUGUUGUUAGAAGAGCAAGGGGUUGUAGACUACUUUCUUCGGAGACUUGACCUUCCUAUUGAGAGACAGUCACGAAAGAUGCUGAUGAAAUGGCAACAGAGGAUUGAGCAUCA` the bound/input enrichment was 0.184 ratio.
With `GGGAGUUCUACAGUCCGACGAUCUUUGCAGCUGAAAGAGAUGAGUAUGGAUCAUAUACAAUGAGUGAGAUAAAUAUUGUUGGCCGAAUUACACUAAAUCUUUGGAGAAUCAUGAGAAAUGAGGUGGCUCUAACUAACUACACCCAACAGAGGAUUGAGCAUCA` the bound/input enrichment was 0.204 ratio.
For `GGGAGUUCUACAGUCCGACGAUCGCUGCAUACAUAGAAAAUGCAAAACAGGUUGGCCGCCUUGAAAAUGCAAUCGGGUGGUAUCAUAGCCACCCUGGCUAUGGCUGCUGGCUUUCUGGGAUUGAUGUUAGUACUCAGAUGCUCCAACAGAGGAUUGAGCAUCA`, the bound/input enrichment was 0.196 ratio.
For `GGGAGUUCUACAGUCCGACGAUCAUCAGGAUUUUUCUGGCACCAAGUUUAAUUCUUCUUCGUACUUCUGGUAGUGACAGAUCUGCAGGACAGAUUUAUCUGUUGAAUGCUCUUGGGCAGGAAAACCAUGUAAAACCUCUGGAACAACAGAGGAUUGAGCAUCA`, the bound/input enrichment was 0.129 ratio.
For `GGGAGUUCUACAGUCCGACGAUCCUGACUUUAUUUGGAAUUGCUGAUAAGAUCUCCUUUGACCUCAGCCUGGCUCGGGGCCUAGACUACUAUACAGGAGUGAUCUAUGAAGCAGUGCUGCUGCAGACCCCAACUCAGGCUGGGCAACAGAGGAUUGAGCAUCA`, the bound/input enrichment was 0.222 ratio.
`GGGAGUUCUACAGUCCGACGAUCUUGUUUUGUUUUGUUUUUGAGACAGAGUCUUGCCCAGGCUUAAACUUCAGCUCCACCUGCCUUAGCCUGUUGGGAUUCAUUUUCUUUAACUCACAAAGAGUAUGCAGAGUAAGCCCCAGUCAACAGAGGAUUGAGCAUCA` gave a bound/input enrichment of 0.26 ratio.
For `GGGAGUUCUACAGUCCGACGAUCCAGCCCCGCACAGGGCCAUGAUUGUUUAUGUCCCACUGGCAGGGAGGUCUCCCAGAUUCCAGUGCUGUCAAGCUCCAGGGCCUGCCCACCUCUGAAGCCUAGGCCUUCUCAGUGUCAGGACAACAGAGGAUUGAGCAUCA`, the bound/input enrichment was 0.0834 ratio.
`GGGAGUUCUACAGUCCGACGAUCACUGCAGUGUCCCGGAGCCUGCGUGUGGUGGGCAAGCUCCUCAAAUGGUAUCUCACAGGGAAUAGGGGAGUCUUGAAAACGCAGCUUCGGCAGUAGGAACAUGAACCUCUUACCUAAAAGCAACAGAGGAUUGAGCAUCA` gave a bound/input enrichment of 0.181 ratio.
For `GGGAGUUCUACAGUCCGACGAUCCAUCAUUAUGCCUAUAAUGUGCCGCUUUGUGAUUGGGCAUUUGCCUACUUUUCUUUCAUAAUUAGUGAUAUAUGCGAUGUAAAACCACUAGUAAAGGUACAUUUUAAUACUUGUUAUUUUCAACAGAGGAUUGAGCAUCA`, the bound/input enrichment was 4.96 ratio.
`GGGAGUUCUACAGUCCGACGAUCAUGUAUCUUUCAUGAUUAAUGUGUGUGUGGGCAGCACCCUAAUCUAGAAUUCAUUCAUAAAAUAGUGUUCCUACAUAGAAAAAUUUAGGAAGAGAAAUUACCCAUUGUGGUAAAGUUAUCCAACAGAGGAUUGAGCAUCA` has a bound/input enrichment of 62.9 ratio.
`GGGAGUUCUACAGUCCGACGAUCUUAGCUCUGAUUGACUACCUGACACAGAAACGAAGUCAAUUGGUAAAGAAGCUGAAUGACUCUGAUCACCAGUCAAGCACCUCACCGCUCAUGGAAGGCACUCCCACCAUCAAAUCCAAGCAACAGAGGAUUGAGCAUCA` has a bound/input enrichment of 0.105 ratio.

Set 2
Target: PABPC1L2, full length, GST fusion (mouse, UniProt A0ABA7IW68)
Technique: RNAcompete
Form: RNA
Sample: in vitro
Concentration: 20 nM
Setting: 7-mer, probes averaged, single round
Baseline: mean of 7-mers
Reading: higher = stronger binding
Target sequence (chain): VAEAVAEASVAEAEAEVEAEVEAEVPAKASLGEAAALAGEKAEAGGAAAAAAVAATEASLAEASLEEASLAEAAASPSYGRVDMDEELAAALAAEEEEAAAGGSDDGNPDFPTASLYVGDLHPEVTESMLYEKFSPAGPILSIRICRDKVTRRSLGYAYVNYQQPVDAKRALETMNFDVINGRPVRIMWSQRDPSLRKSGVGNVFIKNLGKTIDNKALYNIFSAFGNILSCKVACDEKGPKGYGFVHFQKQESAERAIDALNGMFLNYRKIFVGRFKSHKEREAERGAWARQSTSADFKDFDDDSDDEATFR
`UACUUGU` gave a 7-mer Z-score of -0.316.
`AAGGCAU` has a 7-mer Z-score of 0.343.
For `AUACUGG`, the 7-mer Z-score was 0.00798.
`CUAUCAG` has a 7-mer Z-score of -0.235.
With `GUGUUCU` the 7-mer Z-score was -0.454.
For `GAUGUUG`, the 7-mer Z-score was -0.253.
With `AUGGACG` the 7-mer Z-score was 0.0841.
`UUCCUCA` has a 7-mer Z-score of -0.452.
With `GAAUAAA` the 7-mer Z-score was 2.65.
With `UCUUCUU` the 7-mer Z-score was -0.516.
`GUUCCCU` gave a 7-mer Z-score of -0.306.
With `AGGUAGC` the 7-mer Z-score was 0.0388.
The 7-mer Z-score of `AGAACGA` is reported as -0.0337.
With `GACCACU` the 7-mer Z-score was -0.266.
`GGCCGAA` has a 7-mer Z-score of 0.0696.
For `UCUGUUG`, the 7-mer Z-score was -0.427.
`GAUUCGG` gave a 7-mer Z-score of -0.258.
With `AAACCAG` the 7-mer Z-score was 0.49.
`UGAAUCU` gave a 7-mer Z-score of -0.271.
`CGUGCAA` has a 7-mer Z-score of -0.122.
`UGCCUGC` gave a 7-mer Z-score of -0.257.
`UACAGGA` gave a 7-mer Z-score of 0.166.
`GAAAUUG` has a 7-mer Z-score of 0.709.
For `GUAUACA`, the 7-mer Z-score was 0.1.
For `UAAGGGG`, the 7-mer Z-score was 0.463.

Set 3
Organism: Saccharomyces cerevisiae
Effect on: binding
Technique: competitive growth deep sequencing
Form: peptide
Strain: cyclin E1-Cln2 fusion strain
Concentration: concentration not given
Setting: peptide tiling library
Reading: direction not given
Under “growth enrichment score”, `ESSTVSEEDYFSSHRD` is recorded as 0.552.
Under “growth enrichment score”, `CFRCLLFSFSGRSGVE` is recorded as -0.427.
`QYQVVDDIVSKLVFDF` — result for “growth enrichment score”: 0.373.
For `ARKRLELGNLGNPQ`, “growth enrichment score” read -0.252.
`GLPDFVFQQQPVESEA` — result for “growth enrichment score”: 0.108.
For `AKRSLGFLPQPVPL`, “growth enrichment score” read 0.23.
`ALLRRLQDVANDRGSH` — result for “growth enrichment score”: 0.0339.
`RDLFDCDFGDLTPLDF`: “growth enrichment score” 0.544.
Under “growth enrichment score”, `DVSERGYVILPNDYFE` is recorded as -0.00628.
`DKYDEGLYRFNSLNDL`: “growth enrichment score” 0.266.
For `VEEEFFALRKRTPSAG`, “growth enrichment score” read 0.546.
`IQKKLRFEDTLEFVGF`: “growth enrichment score” 0.258.
`LRRKLFLDGNGSIS` — result for “growth enrichment score”: 0.234.
Under “growth enrichment score”, `KPHVSDEEEEEPPFYH` is recorded as 0.157.
`EAAPPTQEAQGETEPT` — result for “growth enrichment score”: 0.614.

Set 4
Target: RNA binding protein fox-1 homolog 2, RRM domain, GST-SBP tag (RBFOX2, Homo sapiens, UniProt O43251-10, residues 100-194)
Technique: RNA Bind-n-Seq
Form: RNA
Sample: in vitro
Concentration: 365 nM
Setting: natural RNA segment, single round, ends assumed
Baseline: no-protein control
Reading: higher = stronger binding
Residues (chain): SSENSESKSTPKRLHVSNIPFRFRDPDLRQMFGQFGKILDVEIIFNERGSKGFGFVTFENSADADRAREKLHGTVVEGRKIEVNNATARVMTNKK
Under “RBNS enrichment (R)”, `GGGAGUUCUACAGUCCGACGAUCAAGAGUGCAGAGCUCUCCCCAGCCCCGUGGGUGGUGACUUUGUUUUCCUGCGGGGCUCAGCCCCCUCCAGGAUGCAGCCCCCUCCCCCGCACCCCGGAACCGGCGUCGCUUGGAAUUCUCGGGUGCCAA` is recorded as 0.222.
Under “RBNS enrichment (R)”, `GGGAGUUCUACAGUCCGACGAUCUCCUGAGAUCCAUCCCCUAGACUGACUGACCGACAGACACACAAACACCAGACUGAAGCACAUGUAAUAUAGACUGUGUAUGUUUACAAUGUUGUGUAUAAAUGGGACACUGGAAUUCUCGGGUGCCAA` is recorded as 0.547.
Under “RBNS enrichment (R)”, `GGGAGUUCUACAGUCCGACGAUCUACCAAAAUGAGAGAUCAGCAAGAUUUCCCAAGAUAGGAGAAUCCUCCUGCUGCCUGCGUGGGAGAAAGUAGGGGAGGAGUCCAAACCAGGCCACCAGAGAUGGUUGAGAUGGAAUUCUCGGGUGCCAA` is recorded as 1.15.
Under “RBNS enrichment (R)”, `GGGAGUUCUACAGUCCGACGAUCUGAGAGUAAUAUCUAAUUAUCUCAUUUUUUGUAGGUCUGUGAUAAAGAACUUAGUCAUCCCUUCCACCUCCUACUGUGAAGAACAGACCCUGGGUCCCACACUGAAAUCCUGGAAUUCUCGGGUGCCAA` is recorded as 0.344.
`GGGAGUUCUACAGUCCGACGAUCUCUCCUUCUGGAGAUCAACCCACAUUAGAGUGUCUAAGGACUCCUGAGAAUUCCUGUUACAGUAAACAAAACUAACGUAAUCUACCAUUUCCUACACUAUUUGAGCAUGGUGGAAUUCUCGGGUGCCAA`: “RBNS enrichment (R)” 0.45.
Under “RBNS enrichment (R)”, `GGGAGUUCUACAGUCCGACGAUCUUAAUAGGGUCAUAUUGUGAAUGUCUCACUACAAAAUGACUUGAGUCCAGUGAAAUCUCAUUAGGGUUUAAGAAUAUUUCAGGGAUCCUUAAUGUUUUGAUUUUUGUUUUUGGAAUUCUCGGGUGCCAA` is recorded as 0.439.
Under “RBNS enrichment (R)”, `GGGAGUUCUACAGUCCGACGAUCAUUGGUGGUAUUAACCUAGAACCAGUAGUGUACGUUAAUACACAUAACUGUGGUGUUAUGUAAAUAAAAUUAGUAAUAAUCAGGCUUUAGAACUGCUUUCCUAUAUUUAUUGGAAUUCUCGGGUGCCAA` is recorded as 0.231.
`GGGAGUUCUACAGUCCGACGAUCUUCUAUGCUAAACUUUGUUCUGUUCAGUUCUAGAGUGUAUACAGAACGAAUUGAUGUGUAACUGUAUGCAGACUGGUUGUAGUGGAACAAAUCUGAUAACUAUGCAGGUUUGGAAUUCUCGGGUGCCAA` — result for “RBNS enrichment (R)”: 0.73.
Under “RBNS enrichment (R)”, `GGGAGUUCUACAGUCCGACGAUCUCAAAGCCACUGGUUAUUUUGUUUUUCAUCAGGCGAUUUUCAAGAUUUUCAUUUGUUUCAGUAUUGUUGGUUUUCUCUUUUCUCUUUUUUACACUGUGGUACAUAUAAGCUGGAAUUCUCGGGUGCCAA` is recorded as 1.16.
`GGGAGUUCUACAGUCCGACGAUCGACGCUCAGAGAGCCCUGCCUCAGCGGCGUCAACGUGAUUAGUUUGCCUAAUUCAUAUUUUCACUUCCAAGUUUAUCAGAGGCGAAUGCAUAAACUAAAGGGUCAUUUGUUGGAAUUCUCGGGUGCCAA`: “RBNS enrichment (R)” 0.482.
`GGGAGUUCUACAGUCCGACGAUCUGUUUCUGUGUUACCAACAACAGCAGACUUCUAGCAUGUACUUAUCAAUGUUGUUCGGUCAGCCCUUCCCUAAUUACACCUAUCCCCUACACAUACAUGCACAUAGACACUGGAAUUCUCGGGUGCCAA` — result for “RBNS enrichment (R)”: 2.62.
`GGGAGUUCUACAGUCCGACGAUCAGACUUGCUGUUGCCUGACAAUUAACUCACUGUGAGGAUAGGCACGCACGCUUUUCAUAAUUAACUGGUGCUUUGAAACCUUUCUUAUGGAAGAAAAAUCUCAACCAAAGUGGAAUUCUCGGGUGCCAA` — result for “RBNS enrichment (R)”: 0.477.

For quick reference, copied from above (set 2):
For `AUACUGG`, the 7-mer Z-score was 0.00798.
With `GACCACU` the 7-mer Z-score was -0.266.
`CUAUCAG` has a 7-mer Z-score of -0.235.
`UACAGGA` gave a 7-mer Z-score of 0.166.
With `AAACCAG` the 7-mer Z-score was 0.49.
`GGCCGAA` has a 7-mer Z-score of 0.0696.
`CGUGCAA` has a 7-mer Z-score of -0.122.
With `AUGGACG` the 7-mer Z-score was 0.0841.
